Experimental data pooled from the literature.
Protocols differ between the studies behind these lines. Numbers after ± are the reported error.
lecA: PA-I galactophilic lectin (lecA, Pseudomonas aeruginosa, UniProt Q05097)
UniProt Q05097, sequence (whole entry, looked up): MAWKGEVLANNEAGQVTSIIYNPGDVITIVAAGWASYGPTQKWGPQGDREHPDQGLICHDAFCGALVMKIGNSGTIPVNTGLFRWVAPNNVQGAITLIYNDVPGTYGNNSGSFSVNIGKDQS
Complement C3: Complement C3 (Homo sapiens, UniProt P01024)
UniProt P01024, sequence (whole entry, looked up): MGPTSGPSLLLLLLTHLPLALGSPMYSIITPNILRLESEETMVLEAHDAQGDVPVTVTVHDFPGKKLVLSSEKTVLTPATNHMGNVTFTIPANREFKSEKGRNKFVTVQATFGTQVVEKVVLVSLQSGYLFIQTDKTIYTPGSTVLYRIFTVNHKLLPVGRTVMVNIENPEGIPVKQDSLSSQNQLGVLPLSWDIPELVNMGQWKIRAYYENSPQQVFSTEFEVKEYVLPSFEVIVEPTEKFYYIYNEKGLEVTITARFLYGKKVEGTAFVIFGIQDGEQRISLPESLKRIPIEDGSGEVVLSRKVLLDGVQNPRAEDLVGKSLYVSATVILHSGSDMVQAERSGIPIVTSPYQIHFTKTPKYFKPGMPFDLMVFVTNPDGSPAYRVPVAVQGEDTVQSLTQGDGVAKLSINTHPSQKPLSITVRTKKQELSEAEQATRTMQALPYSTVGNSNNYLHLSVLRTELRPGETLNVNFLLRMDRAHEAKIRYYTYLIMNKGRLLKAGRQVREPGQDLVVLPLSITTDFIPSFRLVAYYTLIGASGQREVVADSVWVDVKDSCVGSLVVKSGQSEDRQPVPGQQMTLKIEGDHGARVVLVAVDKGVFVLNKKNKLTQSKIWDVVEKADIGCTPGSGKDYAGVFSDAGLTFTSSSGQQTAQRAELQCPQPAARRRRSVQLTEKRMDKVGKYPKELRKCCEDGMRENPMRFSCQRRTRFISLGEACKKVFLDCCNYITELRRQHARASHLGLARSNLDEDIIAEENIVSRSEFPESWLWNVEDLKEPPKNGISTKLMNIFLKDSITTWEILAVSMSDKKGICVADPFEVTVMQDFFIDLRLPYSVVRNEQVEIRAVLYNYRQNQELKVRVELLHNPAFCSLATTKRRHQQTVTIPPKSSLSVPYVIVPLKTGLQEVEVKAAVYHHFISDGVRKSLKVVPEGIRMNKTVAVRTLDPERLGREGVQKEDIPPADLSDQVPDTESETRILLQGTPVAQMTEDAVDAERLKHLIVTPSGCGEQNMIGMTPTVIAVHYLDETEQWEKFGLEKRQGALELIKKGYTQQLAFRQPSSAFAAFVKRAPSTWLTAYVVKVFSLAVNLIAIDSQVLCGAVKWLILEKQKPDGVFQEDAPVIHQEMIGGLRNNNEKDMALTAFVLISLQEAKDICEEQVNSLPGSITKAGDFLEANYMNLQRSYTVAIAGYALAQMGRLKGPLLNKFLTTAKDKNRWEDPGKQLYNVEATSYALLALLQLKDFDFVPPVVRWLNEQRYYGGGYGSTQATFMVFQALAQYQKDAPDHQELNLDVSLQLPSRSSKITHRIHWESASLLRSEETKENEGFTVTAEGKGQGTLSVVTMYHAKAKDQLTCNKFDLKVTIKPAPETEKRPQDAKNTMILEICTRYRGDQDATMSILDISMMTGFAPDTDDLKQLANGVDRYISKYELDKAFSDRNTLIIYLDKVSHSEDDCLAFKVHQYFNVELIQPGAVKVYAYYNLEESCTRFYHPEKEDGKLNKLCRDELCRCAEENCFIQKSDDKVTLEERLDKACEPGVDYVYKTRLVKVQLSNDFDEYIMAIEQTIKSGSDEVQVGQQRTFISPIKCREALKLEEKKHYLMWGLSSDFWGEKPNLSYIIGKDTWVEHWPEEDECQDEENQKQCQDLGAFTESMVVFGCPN
UniProt Q14145, sequence (whole entry, unmodified, looked up): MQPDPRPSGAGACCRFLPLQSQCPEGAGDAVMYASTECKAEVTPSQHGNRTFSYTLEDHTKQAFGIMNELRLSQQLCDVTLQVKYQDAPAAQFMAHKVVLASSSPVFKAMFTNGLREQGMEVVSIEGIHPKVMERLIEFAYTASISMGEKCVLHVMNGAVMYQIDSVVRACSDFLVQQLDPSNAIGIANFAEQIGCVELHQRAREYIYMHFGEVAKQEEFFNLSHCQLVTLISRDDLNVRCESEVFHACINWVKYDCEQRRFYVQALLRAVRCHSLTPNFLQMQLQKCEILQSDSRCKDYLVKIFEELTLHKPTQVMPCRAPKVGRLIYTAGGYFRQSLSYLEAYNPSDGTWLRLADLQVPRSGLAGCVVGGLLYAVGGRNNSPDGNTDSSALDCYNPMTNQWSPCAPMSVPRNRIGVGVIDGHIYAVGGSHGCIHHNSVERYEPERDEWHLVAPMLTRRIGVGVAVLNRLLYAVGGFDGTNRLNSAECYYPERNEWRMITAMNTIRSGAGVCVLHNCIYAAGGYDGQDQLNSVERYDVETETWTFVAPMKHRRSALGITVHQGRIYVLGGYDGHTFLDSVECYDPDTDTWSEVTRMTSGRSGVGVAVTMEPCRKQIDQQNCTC
UniProt Q06911, sequence (whole entry, unmodified, looked up): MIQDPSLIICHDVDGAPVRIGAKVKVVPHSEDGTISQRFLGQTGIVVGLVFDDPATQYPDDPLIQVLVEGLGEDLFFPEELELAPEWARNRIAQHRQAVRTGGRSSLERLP
UniProt O14786, sequence (whole entry, unmodified, looked up): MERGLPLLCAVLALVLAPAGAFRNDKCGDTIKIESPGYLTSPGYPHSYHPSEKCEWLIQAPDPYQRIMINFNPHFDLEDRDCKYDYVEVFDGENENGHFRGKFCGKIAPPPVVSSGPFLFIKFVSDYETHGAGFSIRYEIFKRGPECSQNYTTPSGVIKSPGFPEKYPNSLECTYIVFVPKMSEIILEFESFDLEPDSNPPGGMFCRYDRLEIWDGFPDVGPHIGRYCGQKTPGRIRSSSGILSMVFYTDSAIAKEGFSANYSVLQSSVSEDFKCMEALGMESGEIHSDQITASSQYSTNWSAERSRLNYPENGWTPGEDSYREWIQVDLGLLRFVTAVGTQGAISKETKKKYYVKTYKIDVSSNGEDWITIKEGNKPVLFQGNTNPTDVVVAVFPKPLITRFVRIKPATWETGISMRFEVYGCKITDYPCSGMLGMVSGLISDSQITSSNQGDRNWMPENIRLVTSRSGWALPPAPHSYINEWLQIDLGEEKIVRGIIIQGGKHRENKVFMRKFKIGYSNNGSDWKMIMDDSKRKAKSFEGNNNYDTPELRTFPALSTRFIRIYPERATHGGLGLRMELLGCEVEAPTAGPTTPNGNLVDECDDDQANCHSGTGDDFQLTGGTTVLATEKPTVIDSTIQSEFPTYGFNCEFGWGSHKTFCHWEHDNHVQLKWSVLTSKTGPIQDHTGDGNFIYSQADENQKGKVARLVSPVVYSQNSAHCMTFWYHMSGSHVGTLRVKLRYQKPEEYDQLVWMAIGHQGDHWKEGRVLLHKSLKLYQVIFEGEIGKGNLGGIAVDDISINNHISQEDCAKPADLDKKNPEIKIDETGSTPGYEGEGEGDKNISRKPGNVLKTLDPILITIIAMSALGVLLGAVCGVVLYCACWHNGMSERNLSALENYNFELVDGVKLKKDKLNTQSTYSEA
UniProt P63104, sequence (whole entry, unmodified, looked up): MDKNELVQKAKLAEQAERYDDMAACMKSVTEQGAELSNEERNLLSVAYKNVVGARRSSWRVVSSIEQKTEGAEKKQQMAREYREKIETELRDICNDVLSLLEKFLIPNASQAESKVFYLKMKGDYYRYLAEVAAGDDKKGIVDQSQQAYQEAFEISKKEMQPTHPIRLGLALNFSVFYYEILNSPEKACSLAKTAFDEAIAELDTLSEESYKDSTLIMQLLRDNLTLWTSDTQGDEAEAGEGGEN

For `OC[C@H]1O[C@@H](Oc2ccc(OCCc3cn([C@H]4[C@H](O)[C@@H](O)[C@H](c5cn([C@H]6[C@H](O)[C@@H](O)[C@H](n7cc(CCOc8ccc(O[C@@H]9O[C@H](CO)[C@H](O)[C@H](O)[C@H]9O)cc8)nn7)O[C@@H]6CO)nn5)O[C@@H]4CO)nn3)cc2)[C@H](O)[C@@H](O)[C@H]1O`, the ΔH was -16.1 ± 0.9 kcal/mol (lecA; isothermal titration calorimetry; 25 °C).
`N=C(N)NCCC[C@H](NC(=O)[C@@H]1CCCN1C(=O)[C@H](CC(N)=O)NC(=O)[C@H](CCCNC(=N)N)NC(=O)[C@@H]1CCCN1C(=O)[C@H](CCCCN)NC(=O)[C@H](CCCCN)NC(=O)[C@H](CCC(N)=O)NC(=O)[C@H](CC(=O)O)NC(=O)[C@@H](N)Cc1c[nH]c2ccccc12)C(=O)O` has a ΔH of -17 kcal/mol (Neuropilin-1 (NRP1, Homo sapiens, UniProt O14786); binding, ITC; pH 7.4, 30 °C).
`CC[C@H](C)[C@H](NC(C)=O)C(=O)N[C@H]1CSSC[C@@H](C(=O)N[C@H](C(N)=O)[C@@H](C)O)NC(=O)[C@H](CCCNC(=N)N)NC(=O)[C@H](Cc2c[nH]cn2)NC(=O)[C@@H]2CCCN2C(=O)CNC(=O)[C@H](Cc2c[nH]c3ccccc23)NC(=O)[C@H](CC(=O)O)NC(=O)[C@H](CCC(N)=O)NC(=O)[C@H](Cc2cn(C)c3ccccc23)NC(=O)[C@H](C(C)C)NC1=O` has a ΔH of -15.3 kcal/mol (Complement C3; ITC; pH 7.4, 25 °C).
The ΔH of `COCCOCCOc1cc(-c2cn([C@H]3[C@H](O)[C@@H](O)[C@H](n4cc(-c5ccc(O[C@@H]6O[C@H](CO)[C@H](O)[C@H](O)[C@H]6O)cc5)nn4)O[C@@H]3CO)nn2)c(OCCOCCOC)cc1-c1cn([C@H]2[C@H](O)[C@@H](O)[C@H](n3cc(-c4ccc(O[C@@H]5O[C@H](CO)[C@H](O)[C@H](O)[C@H]5O)cc4)nn3)O[C@@H]2CO)nn1` is reported as -10.2 ± 0.5 kcal/mol (lecA; ITC; 5% DMSO).
`CC[C@H](C)[C@H](NC(=O)[C@H](Cc1c[nH]cn1)NC(C)=O)C(=O)N[C@@H](CCCCN)C(=O)N[C@H](C(=O)N[C@@H](Cc1c[nH]cn1)C(=O)N[C@@H](CC(C)C)C(=O)N[C@@H](CC(=O)O)C(=O)N[C@@H](CCC(=O)O)C(=O)N[C@@H](CCC(=O)O)C(=O)N[C@H](C(=O)NCC(=O)N[C@@H](CCC(=O)O)C(=O)N[C@@H](CCCCN)C(=O)N[C@H](C(=O)N[C@@H](CO)C(=O)N[C@H](C(=O)N[C@H](C(=O)N[C@@H](CC(C)C)C(=O)N[C@@H](CC(=O)O)C(=O)N[C@H](C(N)=O)C(C)C)[C@@H](C)O)[C@@H](C)CC)[C@@H](C)O)[C@@H](C)O)[C@@H](C)O` gave a ΔH of -19.29 ± 0.11 kcal/mol (Kelch-like ECH-associated protein 1, Kelch domain (KEAP1, Homo sapiens, UniProt Q14145); isothermal titration calorimetry; Kelch domain; pH 7, 298.15 K).
`O=C(COc1ccc(F)cc1)N[C@@H](Cc1cn(CCNC(=O)c2ccc(S[C@@H]3O[C@H](CO)[C@H](O)[C@H](O)[C@H]3O)cc2)nn1)C(=O)NCCO` gave a ΔH of -10.4 ± 0.478 kcal/mol (lecA; binding, isothermal titration calorimetry; 25 °C).
With `C#Cc1ccc(O[C@@H]2O[C@H](CO)[C@H](O)[C@H](O)[C@H]2O)cc1` the ΔH was -8.7 ± 1 kcal/mol (lecA; isothermal titration calorimetry; 25 °C).
`O=C(COCc1ccccc1)N[C@@H](Cc1cn(CCNC(=O)c2ccc(S[C@@H]3O[C@H](CO)[C@H](O)[C@H](O)[C@H]3O)cc2)nn1)C(=O)NCCO` has a ΔH of -12 kcal/mol (lecA; binding, isothermal titration calorimetry; 25 °C).
`CCOc1ccc(C[C@@H]2NC(=O)[C@H](C(C)C)NC(=O)[C@@H](NC(=O)[C@@H](NC(C)=O)[C@@H](C)CC)CSSC[C@@H](C(=O)N[C@H](C(N)=O)[C@@H](C)O)NC(=O)[C@H](CCCNC(=N)N)NC(=O)[C@H](Cc3c[nH]cn3)NC(=O)[C@H](C)NC(=O)CNC(=O)[C@H](Cc3c[nH]c4ccccc34)NC(=O)[C@H](CC(=O)O)NC(=O)[C@H](CCC(N)=O)NC2=O)cc1` has a ΔH of -16 kcal/mol (Complement C3; ITC; pH 7.4, 25 °C).
With `Cc1ccc(OCC(=O)N[C@@H](Cc2cn(CCNC(=O)c3ccc(S[C@@H]4O[C@H](CO)[C@H](O)[C@H](O)[C@H]4O)cc3)nn2)C(=O)NCCO)cc1` the ΔH was -10.8 kcal/mol (lecA; binding, isothermal titration calorimetry; 25 °C).
The ΔH of `CC[C@H](C)[C@H](NC(=O)CNC(C)=O)C(=O)N[C@@H](CCCNC(=N)N)C(=O)N[C@@H](CCC(=O)O)C(=O)N[C@@H](C)C(=O)N[C@H](C(=O)N[C@@H](CC(C)C)C(=O)N[C@@H](CCCNC(=N)N)C(=O)N[C@@H](C)C(=O)N[C@@H](Cc1c[nH]c2ccccc12)C(=O)N[C@@H](CCC(=O)O)C(=O)N[C@@H](CCCNC(=N)N)C(=O)N[C@@H](CCCNC(=N)N)C(=O)N[C@@H](Cc1ccc(O)cc1)C(=O)NCC(=O)N[C@@H](Cc1ccccc1)C(=O)N1CCC[C@H]1C(=O)N[C@@H](CCCNC(=N)N)C(=O)N1CCC[C@H]1C(=O)N[C@@H](CC(C)C)C(=O)N[C@@H](CCCNC(=N)N)C(=O)N[C@@H](CO)C(=O)N[C@@H](CCC(=O)O)C(N)=O)[C@@H](C)O` is reported as -10.88 ± 0.07 kcal/mol (Antirepressor protein CarS (carS, Myxococcus xanthus, UniProt Q06911); ITC; pH 7.5, 30 °C).
For `[N-]=[N+]=NCCNC(=O)c1ccc(S[C@@H]2O[C@H](CO)[C@H](O)[C@H](O)[C@H]2O)cc1`, the ΔH was -11.7 ± 0.382 kcal/mol (lecA; binding, isothermal titration calorimetry; 25 °C).
`CC(C)C[C@H](NC(=O)[C@@H]1CCCN1C(=O)[C@H](Cc1c[nH]c2ccccc12)NC(=O)[C@H](COP(=O)(O)O)NC(=O)[C@H](CO)NC(=O)[C@H](CS)NC(=O)[C@H](CCCCN)NC(=O)[C@H](CO)NC(=O)CNC(=O)CNC(=O)[C@H](C)N)C(=O)N1CCC[C@H]1C(=O)N[C@@H](CCC(N)=O)C(=O)N1CCC[C@H]1C(=O)N[C@@H](CO)C(=O)O` gave a ΔH of -4.3 ± 0.215 kcal/mol (14-3-3 protein zeta/delta (YWHAZ, Homo sapiens, UniProt P63104); binding, ITC; pH 7.4, 37 °C).
For `O=C(COCCCc1ccccc1)N[C@@H](Cc1cn(CCNC(=O)c2ccc(S[C@@H]3O[C@H](CO)[C@H](O)[C@H](O)[C@H]3O)cc2)nn1)C(=O)NCCO`, the ΔH was -10.5 ± 0.621 kcal/mol (lecA; binding, isothermal titration calorimetry; 25 °C).
For `OC[C@H]1O[C@@H](OCc2cn([C@@H]3O[C@H](CO)[C@@H](n4cc(-c5ccc(-c6cn([C@H]7[C@H](O)[C@@H](O)[C@H](n8cc(CO[C@@H]9O[C@H](CO)[C@H](O)[C@H](O)[C@H]9O)nn8)O[C@@H]7CO)nn6)cc5)nn4)[C@H](O)[C@H]3O)nn2)[C@H](O)[C@@H](O)[C@H]1O`, the ΔH was -22.9 ± 1.9 kcal/mol (lecA; isothermal titration calorimetry; 25 °C).

Excerpt of the above:
`N=C(N)NCCC[C@H](NC(=O)[C@@H]1CCCN1C(=O)[C@H](CC(N)=O)NC(=O)[C@H](CCCNC(=N)N)NC(=O)[C@@H]1CCCN1C(=O)[C@H](CCCCN)NC(=O)[C@H](CCCCN)NC(=O)[C@H](CCC(N)=O)NC(=O)[C@H](CC(=O)O)NC(=O)[C@@H](N)Cc1c[nH]c2ccccc12)C(=O)O` has a ΔH of -17 kcal/mol (Neuropilin-1 (NRP1, Homo sapiens, UniProt O14786); binding, ITC; pH 7.4, 30 °C).
The ΔH of `CC[C@H](C)[C@H](NC(=O)CNC(C)=O)C(=O)N[C@@H](CCCNC(=N)N)C(=O)N[C@@H](CCC(=O)O)C(=O)N[C@@H](C)C(=O)N[C@H](C(=O)N[C@@H](CC(C)C)C(=O)N[C@@H](CCCNC(=N)N)C(=O)N[C@@H](C)C(=O)N[C@@H](Cc1c[nH]c2ccccc12)C(=O)N[C@@H](CCC(=O)O)C(=O)N[C@@H](CCCNC(=N)N)C(=O)N[C@@H](CCCNC(=N)N)C(=O)N[C@@H](Cc1ccc(O)cc1)C(=O)NCC(=O)N[C@@H](Cc1ccccc1)C(=O)N1CCC[C@H]1C(=O)N[C@@H](CCCNC(=N)N)C(=O)N1CCC[C@H]1C(=O)N[C@@H](CC(C)C)C(=O)N[C@@H](CCCNC(=N)N)C(=O)N[C@@H](CO)C(=O)N[C@@H](CCC(=O)O)C(N)=O)[C@@H](C)O` is reported as -10.88 ± 0.07 kcal/mol (Antirepressor protein CarS (carS, Myxococcus xanthus, UniProt Q06911); ITC; pH 7.5, 30 °C).
